Values quoted from earlier work that unrelated publications cite.
Protocols differ between the studies behind these lines. ± gives the spread as reported.

CC(C(=O)O)c1ccc(-c2ccccc2)c(F)c1 (stereo not shown)
clearance (human): 1.6 L/h

c1ccc2c(c1)Cc1ccccc1-2
bioconcentration factor (fish; dose not given, experimental mean): 468 L/kg

CNCCC(Oc1ccc(C(F)(F)F)cc1)c1ccccc1 (stereo not shown)
fraction unbound (mouse): 0.0018

O=C(O)C(F)(F)C(F)(F)C(F)(F)C(F)(F)C(F)(F)C(F)(F)C(F)(F)C(F)(F)C(F)(F)F
IC50 (CYP2D6; inhibitor; Tox21 screening): inactive

CC(=O)C[C@@H](c1ccccc1)c1c(O)c2ccccc2oc1=O
Cmax, mean (human, fasted; oral, 5 mg, single dose, together with: racemic warfarin 10 mg): 550 ng/mL

COC(=O)[C@H](c1ccccc1)[C@H]1CCCCN1
Tmax (human, by CES1 genotype, plasma; oral, 10 mg methylphenidate, single dose, median): 1.8 h

O=C(O)C(F)(F)C(F)(F)C(F)(F)C(F)(F)C(F)(F)C(F)(F)C(F)(F)F
IC50 (CYP1A2; inhibitor; Tox21 screening): inactive

COCCOC(=O)C1=C(C)NC(C)=C(C(=O)OC(C)C)C1c1cccc([N+](=O)[O-])c1 (stereo not shown)
fraction unbound (dog): 0.007

NC1CCCCC1N.O=C([O-])C(=O)[O-].[Pt+2] (stereo not shown)
AUC (item: free platinum; mouse, plasma ultrafiltrate; intravenous, 8.34 mg Pt/kg): 3300 ng·h/mL

O=C1c2cccc3c2[C@H](CCC3)CN1[C@@H]1CN2CCC1CC2
IC50 (hERG (human); inhibitor): 2040 nM

Cc1nnc2n1-c1ccc(Cl)cc1C(c1ccccc1Cl)=NC2
Km (CYP3A4; substrate, item: 1-hydroxy metabolite formation): 18.2 µM

O=C(O)C(F)(F)C(F)(F)C(F)(F)C(F)(F)C(F)(F)C(F)(F)C(F)(F)C(F)(F)F
IC50 (CYP2D6; inhibitor; Tox21 screening): inactive

Cc1nc2n(c(=O)c1CCN1CCC(c3noc4cc(F)ccc34)CC1)CCCC2O (stereo not shown)
fraction unbound (dog): 0.126

C=C[C@@H]1C[C@]1(NC(=O)[C@@H]1C[C@@H]2CN1C(=O)[C@H](C(C)(C)C)NC(=O)O[C@@H]1C[C@H]1CCCCCc1nc3ccc(OC)cc3nc1O2)C(=O)NS(=O)(=O)C1CC1
IC50 (BSEP (human); ATP-dependent taurocholic acid uptake, inhibitor): 150 nM

O=C(O)[C@@H](c1ccccc1)[C@@H]1CCCCN1
Tmax (human, CES1 wild type, plasma; oral, 10 mg methylphenidate, single dose, median): 2.3 h

CCCCCCCN(CC)CCCC(O)c1ccc(NS(C)(=O)=O)cc1 (stereo not shown)
fraction unbound (dog): 0.119

O=C(O)C(F)(F)C(F)(F)C(F)(F)C(F)(F)C(F)(F)C(F)(F)C(F)(F)C(F)(F)C(F)(F)C(F)(F)F
IC50 (CYP2C9; inhibitor): 5360 ± 620 nM

Nc1nnc(-c2cccc(Cl)c2Cl)c(N)n1
fraction unbound (mouse): 0.18

Cc1c(C(=O)NN2CCCCC2)nn(-c2ccc(Cl)cc2Cl)c1-c1ccccc1I
Ki (CB2 receptor; binding): 577 nM

O=C1NC(=O)C(c2ccccc2)(c2ccccc2)N1
fraction unbound (mouse): 0.088

O=C(O)C(F)(F)C(F)(F)C(F)(F)C(F)(F)C(F)(F)F
IC50 (CYP3A4; inhibitor; Tox21 screening): inactive

COc1ccc2c(c1)c(CC(=O)O)c(C)n2C(=O)c1ccc(Cl)cc1
fraction unbound (dog): 0.035

FC(F)(F)C(F)(F)C(F)(F)C(F)(F)CCI
IC50 (CYP2C9; inhibitor; Tox21 screening): inactive

c1cc2ccc3cccc4ccc(c1)c2c34
log Kow (experimental mean or OPERA estimate): 4.88

FC(F)(F)C(F)(F)C(F)(F)C(F)(F)C(F)(F)C(F)(F)CCI
IC50 (CYP1A2; inhibitor; Tox21 screening): inactive

NC(=O)N1c2ccccc2C=Cc2ccccc21
fraction unbound (dog): 0.159

O=C(O)C(F)(F)C(F)(F)C(F)(F)C(F)(F)C(F)(F)C(F)(F)F
IC50 (CYP3A4; inhibitor; Tox21 screening): inactive

CCCCCOc1ccc(-c2ccc(-c3ccc(C(=O)N[C@H]4C[C@@H](O)[C@@H](O)NC(=O)[C@@H]5[C@@H](O)[C@@H](C)CN5C(=O)[C@H]([C@@H](C)O)NC(=O)[C@H]([C@H](O)[C@@H](O)c5ccc(O)cc5)NC(=O)[C@@H]5C[C@@H](O)CN5C(=O)[C@H]([C@@H](C)O)NC4=O)cc3)cc2)cc1
volume of distribution (human renal impairment mild; 50 mg single dose): 37.6 ± 8.9 L

Repeated from above:
CCCCCCCN(CC)CCCC(O)c1ccc(NS(C)(=O)=O)cc1 (stereo not shown)
fraction unbound (dog): 0.119

O=C(O)C(F)(F)C(F)(F)C(F)(F)C(F)(F)C(F)(F)C(F)(F)C(F)(F)C(F)(F)C(F)(F)C(F)(F)F
IC50 (CYP2C9; inhibitor): 5360 ± 620 nM
